Measurements gathered from unrelated publications.
Parts stem from different laboratories: compare values within a part only.

Set 1 — technique: RNA Bind-n-Seq; form: RNA; sample: in vitro; tested at: 200 nM; notes: whole 134-nt RNA, ends assumed; together with: 150 mM LiCl; relative to: input library; reading: higher = stronger binding; each molecule: 7-deaza-guanosine replaces G
Target: Fragile X messenger ribonucleoprotein 1, C-terminal low-complexity region (Fmr1, Mus musculus, UniProt P35922)
All sequences stand within: GGGAGUUCUACAGUCCGACGAUC … UGGAAUUCUCGGGUGUCAAGG
| Oligonucleotide | log2 enrichment |
| --- | --- |
| CCUGUGCUACACAUCGUAUGUACCGAAUCGGGGUUUUUUUGGGGUUUUUUUGGGGAGGGGAAAGUAUUAUGUUACGCCGUUCGGAUCUGC | 0.384 |
| CUGUGCUACACAUCGUAUGUACCGAAUCGGGGUUUUUUUGGUUUUUUUGGGGUUUUUUUGGGAAAGUAUUAUGUUACGCCGUUCGGAUCU | 0.766 |
| GUCCUGUGCUACACAUCGUAUGUACCGAAUCGGCCCCCGGGGCCCCCGGGGCCCCCGGGAAAGUAUUAUGUUACGCCGUUCGGAUCUGCA | -2.86 |
| CCUGUGCUACACAUCGUAUGUACCGAAUCGGAAAAAAGGGGAAAAAAGGGGAAAAAAGGGAAAGUAUUAUGUUACGCCGUUCGGAUCUGC | -0.216 |
| UAACUUUAGAGGAGGAUCUGAUGGAUAUGGCAGUGGACGUGGAGUUGGGGAUGGCUAUAAUGGGUAUGGAGGAGGACCUGGAGGUGGCAA | -0.0518 |
| UGGGAGGUGGAUUUUGUUUAUUUUUUUAGCUCAUUUCCAGGGGUGGGAACUUUUUUUUAAUAUGUGUCAUGAAUAAAGUUGUUUUUGAAA | -0.822 |
| UCAAGUCCUGUGCUACACAUCGUAUGUACCGAAUCGGGUUUGGUUUGGUUUGGGAAAGUAUUAUGUUACGCCGUUCGGAUCUGCACUUCC | -1.7 |
| AGUCCUGUGCUACACAUCGUAUGUACCGAAUCGGGAAAAAAAGGGUGGGUUUUUGGGAAAGUAUUAUGUUACGCCGUUCGGAUCUGCACU | -2.41 |
| CCUGUGCUACACAUCGUAUGUACCGAAUCGGUUUUUUGGGGUUUUUUGGGUUUUUUGGGGAAAGUAUUAUGUUACGCCGUUCGGAUCUGC | -1.12 |
| CUGUGCUACACAUCGUAUGUACCGAAUCAAAUUUUUUUAAACCCCCCCAAAUUUUUUUAAAAAAGUAUUAUGUUACGCCGUUCGGAUCUG | 0.718 |
| UCAAGUCCUGUGCUACACAUCGUAUGUACCGAAUCGGAAGGGGAAGGGGAAGGGAAAGUAUUAUGUUACGCCGUUCGGAUCUGCACUUCC | -0.488 |

Set 2 — technique: RNA Bind-n-Seq; form: RNA; sample: in vitro; tested at: 365 nM; relative to: no-protein control; reading: higher = stronger binding
Target: RNA binding protein fox-1 homolog 2, RRM domain, GST-SBP tag (RBFOX2, Homo sapiens, UniProt O43251-10, residues 100-194)
Notes: natural RNA segment, single round, ends assumed
All sequences stand within: GGGAGUUCUACAGUCCGACGAUC … UGGAAUUCUCGGGUGCCAA
Construct (chain): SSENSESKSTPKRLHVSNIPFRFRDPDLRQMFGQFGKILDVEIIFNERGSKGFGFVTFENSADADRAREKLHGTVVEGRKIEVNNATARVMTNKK
| Oligonucleotide | RBNS enrichment (R) |
| --- | --- |
| UUGAAUUUUGUUGUCCGGCCCUCAGUGCCCUGCCCUCUCCCUUACCAGGACCACAGCUCUGUUCCUUCGGCCUCUGGUCCUCUCUGGUCCCCUCCUGGGUUUCUUACGUA | 0.315 |
| GUGAGGAUGCAUGCGUGGGGCUGCUGGUGUUUAGAGUGGGGGCUACCCAAUAAAUCACUGAUACUCACGUUCCACCUCUGUCUCUCCUCAGAGUGCCUUGAGACACUCUG | 12.4 |
| AGCAGCUGUGGUCAUUAAACCAUUAGUUUACCCCUCUAGAACUGGGGUCUGCAAACUCCCACCUGCAGCCAAAUCUGGCCCACCUCCUUUUUAAUGUAAGGGCUGUGAGA | 0.35 |
| CUAGUCUCUGAUUUUUGAGUCUGGCGGAGGCCUCUUGACCAUGCUGCCCAUGCUGUCUACUGUGCCUCCUUAUGAGGGCAUCAUGUUGGUCUCUGUUGUGCUUACUGCAG | 0.261 |
| AGGACCUCAGGAACAAUGUUGAUAGACCAUUUACAGGACUGUCAAGAAGCAGACUCAAUUCGAGAAUUAAAUGUGUCUGUCAUUGUGUUGAAUUUUGAUUUGUCCUUGGU | 0.364 |
| UAAUUUUUUACCAUUGCUACGUGUCCCACCUGCUGUUUACAAUAAAGGCAGAUGUGUGACAGGCCUGCCUCAUGUCCAUUCUUAGGGGAGGGAACUGGGGUUUCCUUGAC | 0.347 |
| AAUUUGAUAGUUCUUGUCAAAUGAGAAAAUUUAAAGGUAAGAGUUAUGGUUUGUCUUAUGCUGCAUAGACUAUUCACCUCCUAACUUGAAGGUCUAAUCAUAAGACAAUU | 0.437 |
| UGUUUUUCUUGUAAAUGUGUUGGACAAAUGUGAAGAUGCGUUGUAGUUUACCCAUAUGCCCACAUUUAGUCUCUUUAUUCCUAGUUGGUGAGAAACCUGUAUCUUUCUAU | 0.524 |
| AUGCUACGUGACAGUUUGAAACCUUCACAGUUAUCCUCUGGGGGUAAAUCAAUUCUUCAACCCUUGGGUGUGUGAGUUUGAGGCAGGGUCAUUUGUGUGAUGUGUUUGGC | 0.348 |
| UGGGCUAAGGUGGACAGGCUGUGUAAGUUUUAUCAGCUAGCAGACUGAGUGUGGGCUGGAAUUGUUCUGGUGUUGGGAGGGUCAGCUGGGAGUGUCCAUCUUUAGGGAAG | 0.918 |
| GGAGGUUCUACUGUCUUGUCGUCCACUCUUGUCCCUCCCUUCUGUUAUCAAAGUUAAAGCGCCUCUUCACUCAAAAGGGCUUCAAAAUGUAAAUGGCUCUAGAGUUAGAG | 0.445 |
| UUUACCUGUGAGGGGCUCCAUGCUCCAGCAGCAGAGCAGGUUCUAGUGACAAUUCAACUUUUUAUGCUAUGACCAGGGGUGGAUCUAAAUUUUAUGGGGCUGAAAGCUUG | 1.35 |

Set 3 — technique: protein-binding microarray; form: double-stranded DNA, one strand shown; sample: in vitro; tested at: 250 nM; notes: 60-bp whole probe; together with: salmon DNA 0.4 mg/ml; relative to: random background probes; reading: higher = stronger binding; all sequences stand within: GCCTAGCAC … GTCTTGATTCGCTTGACGCTGCTG
Target: Interferon regulatory factor 7, full length, phosphomimetic (IRF7, Homo sapiens, UniProt Q92985, residues 1-503, S101K/S471D/S472D/S475D/S476D/S477D/S483D/S484D/S487D)
Construct (chain): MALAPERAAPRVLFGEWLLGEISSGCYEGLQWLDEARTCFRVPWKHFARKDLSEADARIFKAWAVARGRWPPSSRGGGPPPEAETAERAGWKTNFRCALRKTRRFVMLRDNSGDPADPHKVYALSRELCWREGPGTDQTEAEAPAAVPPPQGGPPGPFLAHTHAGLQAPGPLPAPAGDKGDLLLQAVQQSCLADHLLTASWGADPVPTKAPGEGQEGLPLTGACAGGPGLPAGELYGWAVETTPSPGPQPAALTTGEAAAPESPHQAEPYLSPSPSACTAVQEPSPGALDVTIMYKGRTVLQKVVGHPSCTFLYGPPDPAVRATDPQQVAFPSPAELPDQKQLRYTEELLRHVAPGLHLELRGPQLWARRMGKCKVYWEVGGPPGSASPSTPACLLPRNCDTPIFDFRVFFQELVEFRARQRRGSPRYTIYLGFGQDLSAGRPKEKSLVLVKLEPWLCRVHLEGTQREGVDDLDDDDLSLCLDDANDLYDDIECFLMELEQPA
| Oligonucleotide | log fluorescence |
| --- | --- |
| GAGGGTTTCGACTATCGGGACGTGCTA | 3.59 z-score |
| TTAGGACTGGATATCGGTTAGTGCTAG | -0.19 z-score |
| TCAATCATCCGTTTCTTACTGTGCTAG | 0.532 z-score |
| GACGTACTGGGTCTCGGGACGTGCTAG | 0.144 z-score |
| TTTTTTTTATCAATCATTTTGTGCTAG | 0.786 z-score |
| CACGGACTGCTTTTCCTGACGTGCTAG | -0.0646 z-score |
| TTTGGTATCGGGACTGGGTTAGTGCTA | 0.359 z-score |
| TCATTTTTTTTATTTATACTGTGCTAG | 1.31 z-score |
| TTAGGCATCGGTATCGGTTAGTGCTAG | 1.12 z-score |
| TTAGATTTCAGACTGGATTAGTGCTAG | 0.227 z-score |
| TAAGATATCGGGTTTCGATTAGTGCTA | 7.37 z-score |
| CACGGTCTCCTTTTCCTGACGTGCTAG | 1.36 z-score |
| TTAGGTTTCGGTCACGGTTAGTGCTAG | 4.28 z-score |
| TTAGGTCTCCTTCTCCTGTAGTGCTAG | 0.573 z-score |
| GCCGAACTGGGGTATCGAGACGTGCTA | -0.536 z-score |
| GACAGTCTCCTTCTCCTGACGTGCTAG | 0.144 z-score |
| TTAGGACTGGGGATTCGGTTAGTGCTA | 0.929 z-score |
| GACGGACTGGTGTTTCGGGACGTGCTA | -0.0755 z-score |
| TTAGATCTCAGTCTCGATTAGTGCTAG | 1.7 z-score |
| GACGAACTGGGGAATCGAGACGTGCTA | 0.304 z-score |

Set 4 — technique: protein binding microarray; form: double-stranded DNA, one strand shown; sample: in vitro; tested at: not given; relative to: not given; reading: higher = stronger binding
Target: Histone acetyltransferase KAT6A, both winged helices, GST fusion (KAT6A, Homo sapiens, UniProt Q92794, residues 1-181)
Notes: 8-mer, flanks averaged, mean of 2 arrays, mostly near background
Target sequence (chain): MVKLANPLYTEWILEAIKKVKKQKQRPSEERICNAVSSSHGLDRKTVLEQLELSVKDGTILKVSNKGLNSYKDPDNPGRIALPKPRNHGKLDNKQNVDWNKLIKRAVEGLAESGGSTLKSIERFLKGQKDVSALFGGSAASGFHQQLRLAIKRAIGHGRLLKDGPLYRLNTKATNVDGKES
| Oligonucleotide | E-score |
| --- | --- |
| ACTCAGCT | -0.0861 |
| ATCACGTG | -0.0443 |
| CCTCAACA | -0.0912 |
| CACAATGG | -0.152 |
| CTCAGCTA | -0.128 |
| ACACGCAG | 0.0584 |
| CGCTACTA | 0.0889 |
| TATTAACA | 0.0864 |
| CTGGTAGC | -0.125 |
| AACGCTGA | 0.0763 |
| CGTCGCCA | 0.116 |
| CGGAGAGC | 0.139 |
| ACAATTTA | -0.0517 |
| GGACCATA | -0.046 |
| CGGAAGAG | 0.0671 |
| GTATAAAA | 0.186 |
| CTGGCTAC | -0.0448 |
| AATACACA | -0.0162 |
